Measured values collected from several papers.
Compare with care: the assays were run in different laboratories. Numbers after ± are the reported error.
Sequence of UniProt Q8TDS7 (whole entry, looked up): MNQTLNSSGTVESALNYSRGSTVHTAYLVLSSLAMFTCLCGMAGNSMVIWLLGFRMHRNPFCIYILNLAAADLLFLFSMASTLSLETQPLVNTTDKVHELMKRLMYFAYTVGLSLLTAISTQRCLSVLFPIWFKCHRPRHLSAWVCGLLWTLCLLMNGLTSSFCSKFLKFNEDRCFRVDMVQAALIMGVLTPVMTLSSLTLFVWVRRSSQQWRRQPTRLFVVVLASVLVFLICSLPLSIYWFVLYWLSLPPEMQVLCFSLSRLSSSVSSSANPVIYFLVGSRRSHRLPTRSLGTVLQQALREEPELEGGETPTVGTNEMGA
Sequence of UniProt P35348 (whole entry, looked up): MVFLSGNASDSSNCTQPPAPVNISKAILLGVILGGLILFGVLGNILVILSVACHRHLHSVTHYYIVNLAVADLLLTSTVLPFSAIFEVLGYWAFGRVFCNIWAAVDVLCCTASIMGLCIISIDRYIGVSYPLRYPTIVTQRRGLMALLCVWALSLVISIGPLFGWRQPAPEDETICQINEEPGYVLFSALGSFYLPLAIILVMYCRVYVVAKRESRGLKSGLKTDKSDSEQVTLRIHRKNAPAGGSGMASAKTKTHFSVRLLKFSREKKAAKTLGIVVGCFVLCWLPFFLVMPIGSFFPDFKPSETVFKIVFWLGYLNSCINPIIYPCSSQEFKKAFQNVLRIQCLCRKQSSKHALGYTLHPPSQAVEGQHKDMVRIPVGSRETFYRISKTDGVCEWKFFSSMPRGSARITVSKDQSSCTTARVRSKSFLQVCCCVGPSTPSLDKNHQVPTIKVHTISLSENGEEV
Sequence of UniProt P36544 (whole entry, looked up): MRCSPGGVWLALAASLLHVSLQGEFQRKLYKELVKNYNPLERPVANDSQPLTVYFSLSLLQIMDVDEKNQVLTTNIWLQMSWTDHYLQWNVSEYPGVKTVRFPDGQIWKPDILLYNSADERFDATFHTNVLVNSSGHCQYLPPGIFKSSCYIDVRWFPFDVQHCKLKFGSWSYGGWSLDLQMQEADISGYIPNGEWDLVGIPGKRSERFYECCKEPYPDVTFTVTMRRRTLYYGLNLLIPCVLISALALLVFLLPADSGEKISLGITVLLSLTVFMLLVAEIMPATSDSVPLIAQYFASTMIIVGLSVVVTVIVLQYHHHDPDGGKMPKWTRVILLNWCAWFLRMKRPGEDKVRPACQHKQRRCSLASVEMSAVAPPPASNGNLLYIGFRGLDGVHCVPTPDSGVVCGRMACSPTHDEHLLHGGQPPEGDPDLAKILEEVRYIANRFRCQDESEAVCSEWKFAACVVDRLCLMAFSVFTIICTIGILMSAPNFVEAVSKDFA

Compound	tested on	test	system	conditions	scale	endpoint	result
O=C(Nc1ccccc1)C1CCN(C(=O)Oc2cccnc2)CC1	–	adverse event reporting	healthy women	oral, 20 mg, 7 days	–	subjects with affect lability	7.1%
C[C@@H](NC(=O)N1C(=O)[C@H](Cc2ccnc(N)c2)[C@H]1C(=O)O)C1CCCCC1	–	–	healthy Chinese adult volunteers	continuous intravenous infusion, dose not given, 5.0 days, CTCAE 5.0, all doses	–	urine leukocyte positive	2.5%
COc1cc(Nc2ncc(F)c(Nc3ccc4c(n3)NC(=O)C(C)(C)O4)n2)cc(OC)c1OC	CHRNA7 (Homo sapiens, UniProt P36544)	–	–	together with: methyllycaconitine	–	IC50	> 10 µM
O=C(O)C(O)(c1cccs1)c1cccs1	–	–	human, plasma	1 mg once daily of parent drug, 5 days	–	plasma concentration	not detected
[Cl-].[Cl-].[Pt+2].[Ru+2].c1ccc(-c2nc3cc4ccccc4cc3nc2-c2ccccn2)nc1.c1cnc2c(c1)ccc1cccnc12.c1cnc2c(c1)ccc1cccnc12	Danio rerio	–	embryos	60 µM, 96 h	–	survival rate	70 ± 2%
CO[C@H]1C[C@@H]2CC[C@@H](C)[C@@](O)(O2)C(=O)C(=O)N2CCCC[C@H]2C(=O)O[C@H]([C@H](C)C[C@@H]2CC[C@@H](OC(=O)NCCOCCOCCOCCOCCOCCOCCOCCOCCC(=O)N3CCc4cc(Cn5nc(-c6ccc7oc(N)nc7c6)c6c(N)ncnc65)ccc4C3)[C@H](OC)C2)C[C@@H](O)[C@H](C)/C=C(\C)[C@@H](O)[C@@H](OC)C(=O)[C@H](C)C[C@H](C)/C=C/C=C/C=C/1C	–	dose-escalation trial	patients with advanced solid tumours	intravenous, 1.6 mg/3 mg weekly, any grade	–	abdominal pain TEAE incidence	20%
CC(C)CC(=O)OC[C@H]1O[C@@](C#N)(c2ccc3c(N)ncnn23)[C@H](O)[C@@H]1O	–	plasma protein binding	dog plasma	9 µM	–	bound fraction	0.722
COc1ccc2nc3cc(Cl)ccc3c(Nc3cc(CN4CCCC4)c(O)c(CN4CCCC4)c3)c2n1	–	–	mouse, blood	intraperitoneal, 57 mg/kg	–	creatinine level	24.9 µmol/L
CC[C@H](C)[C@@H]1NC(=O)[C@@H]2CCCN2C(=O)[C@H](CC(C)C)NC(=O)[C@H](CC(C)C)NC(=O)CNC(=O)[C@@H](NC(=O)[C@@H](NC(=O)[C@H](CC(=O)O)NC(=O)CNC(=O)[C@@H](NC(=O)[C@H](C)NC(=O)CNC(=O)[C@H](CCCCN)NC(=O)[C@H](CC(C)C)NC(=O)[C@H](CC(C)C)NC(=O)[C@H](CCCCN)NC(=O)CNC(=O)[C@@H](NC(=O)[C@@H](N)CC(C)C)C(C)C)C(C)C)C(C)C)CSSC[C@@H](C(=O)O)NC1=O	–	RNA-seq, refers to: Col7a1	mouse, traumatic brain injury model, frontal cortex and hippocampus	dose not given	reference: TBI alone	log2 fold change	-1.81
NCCCC[C@@H]1NC(=O)[C@@H](Cc2c[nH]c3ccccc23)NC(=O)[C@H](c2ccccc2)NC(=O)[C@@H]2C[C@@H](OC(=O)NCCN)CN2C(=O)[C@H](Cc2ccccc2)NC(=O)[C@H](Cc2ccc(OCc3ccccc3)cc2)NC1=O	–	–	healthy volunteers, male	600 µg twice daily, 1.5 h, post hoc	–	placebo-corrected QTcF change	10.4 ms
Clc1ccc(Cl)c(-c2cc(Cl)ccc2Cl)c1	–	–	Sprague Dawley rat, liver	intraperitoneal, 10 mg/kg	–	organ weight	6.78 g
COc1ccc(-c2c(-c3ccc(C#N)c(F)c3)nc(N3CCC(N)CC3)n(C)c2=O)cc1F	–	refers to: Fatigue/asthenia	neuroendocrine neoplasm patients	oral, 60 mg, any grade, dose expansion	–	treatment-related adverse event incidence	38%
C[C@H]1CN(c2n[nH]c3nc(N[C@H]4CC[C@H](NS(=O)(=O)CCC(F)(F)F)CC4)ncc23)CCO1	Small ribosomal subunit protein uS3 (Homo sapiens, UniProt P23396)	Kinobeads competition, refers to: RPS3	–	0.8 µM, unit not given	reference: vehicle	remaining binding	1.19
Cc1ncc(C)n2nc(/C=C/c3nc(N4CCCC4)cc(N4CCOCC4)n3)nc12	–	–	F344 rat male, striatum	oral, 0.3 mg/kg, 60 min	–	tissue concentration	317 ± 51 ng/g
CCc1ccc(CC/C=C/c2ccc3c(c2)C(=O)CC3)cc1	–	–	Sprague-Dawley rat, male	oral, 30 mg/kg/day, 14 days	–	AST serum activity	115 U/L
CN1CCN(c2cc(-c3ccncc3)c(-c3ccc4ccccc4c3)nn2)CC1	ADRA1A (Homo sapiens, UniProt P35348)	agonist, FLIPR	–	12.5 µM	–	activation	-0.7%
Fc1ccc([C@@H]2CCNC[C@H]2COc2ccc3c(c2)OCO3)cc1	–	refers to: Anxiety	healthy volunteers	oral, dose not given, given -1 h relative to LSD, together with: LSD	direction not given	List of Complaints score	0 score
CC(C)C[C@@H](NC(=O)[C@H](Cc1ccccc1)NC(=O)CNC(=O)[C@@H](C)NC(=O)[C@H](Cc1ccc(O)cc1)NC(=O)[C@@H]1CCCN1C(=O)[C@@H]1CCCN1C(=O)c1ccc[n+](C)c1)C(=O)O	–	–	rat striatum homogenate	100 µM, pH 7.4, 37 °C	–	half-life	12 min
COc1cc2c(Oc3ccc4[nH]c(C)cc4c3F)ccnc2cc1OCC1(N)CC1	–	–	paediatric recurrent refractory sarcoma	8 mg	–	grade 1 or 2 Hematuria	0%
CC(=O)OC[C@H]1O[C@@H](Oc2cc(O)cc3cc4oc(C)cc(=O)c4c(O)c23)[C@H](O)[C@@H](O)[C@@H]1O	HK-2 co-cultured with HepaRG	MTT	–	66.67 µM, 24 h	reference: untreated control	cell viability	114 ± 13.1%
Oc1ccc2c3c1O[C@H]1[C@@H](O)CC[C@@]4(O)[C@@H](C2)N(CC2CCC2)CC[C@]314	MRGPRD (Homo sapiens, UniProt Q8TDS7)	β-arrestin recruitment, TANGO luminescence	–	concentration not given	reference: basal luminescence	log2 fold change	-0.00318
